Assay results pooled from the literature.
Each line is one published result; not all experiments were run side by side. Several values in a cell are separate wells, animals, samples, runs or records. ± gives the spread as reported.
Chain of UniProt P08684 (whole entry, looked up): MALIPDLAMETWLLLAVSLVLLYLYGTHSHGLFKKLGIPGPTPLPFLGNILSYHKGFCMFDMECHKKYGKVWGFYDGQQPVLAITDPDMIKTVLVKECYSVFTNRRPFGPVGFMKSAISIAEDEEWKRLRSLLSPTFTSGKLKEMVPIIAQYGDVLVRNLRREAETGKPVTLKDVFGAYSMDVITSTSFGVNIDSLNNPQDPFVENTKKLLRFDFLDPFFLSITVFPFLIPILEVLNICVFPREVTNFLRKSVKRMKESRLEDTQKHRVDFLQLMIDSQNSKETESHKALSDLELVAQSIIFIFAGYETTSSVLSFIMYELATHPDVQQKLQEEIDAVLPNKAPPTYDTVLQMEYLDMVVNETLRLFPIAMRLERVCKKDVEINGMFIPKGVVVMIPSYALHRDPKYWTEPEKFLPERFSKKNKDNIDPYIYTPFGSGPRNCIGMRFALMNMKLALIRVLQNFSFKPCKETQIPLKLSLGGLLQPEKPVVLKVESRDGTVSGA

CCC1(c2ccccc2)C(=O)NC(=O)NC1=O
induction (CYP2B6 human; enzyme activity, inducer; cryopreserved primary human hepatocytes; 1000 µM, 3 days, 0.1% DMSO; reference: negative control): 439 to 17800%

Cc1ncc2n1-c1ccc(Cl)cc1C(c1ccccc1F)=NC2
half-life (Cytochrome P450 3A4 (CYP3A4, Homo sapiens, UniProt P08684); human, plasma; oral, 2 mg, day 1, alone, geometric mean): 2.95 h

O=NN1CCN(C2CCCC2)CC1
revertant colonies per plate (Salmonella typhimurium; mutagenicity, Ames plate incorporation; TA1535; 5000 µg/plate, 3 d, without S9, methanol): 24.7 ± 2

O=C(Nc1ccccc1)C1CCN(C(=O)Oc2cccnc2)CC1
subjects with dry mouth (adverse event reporting; healthy women; oral, 100 mg, 9 days): 7.7%

CN(CC(C)(C)C)N=O
revertant colonies per plate (Escherichia coli; plate incorporation; WP2uvrA pKM101, methanol; 500 µg/plate, without S9): 114 and 131

CC(C)CC(=O)OC[C@H]1O[C@@](C#N)(c2ccc3c(N)ncnn23)[C@H](O)[C@@H]1O
recovery (Caco-2; bidirectional permeability; 90 µM, 120 min; basolateral to apical): 101%

O=[N+]([O-])c1ccc(N2CCC(NCCC(O)c3ccc(F)c4ccccc34)CC2)c(C(F)(F)F)c1 (stereo not shown)
survival (Salmonella typhimurium; SOS/umu test; TA1535/pSK1002, TGA medium; 0.000244 mg/mL, 4 h, without S9): 110%

O=C1c2c(O)c(=O)ccn2N([C@@H]2c3ccccc3SCc3c2ccc(F)c3F)[C@@H]2COCCN12
plasma concentration (BALB/c mice, plasma; oral, 0.5 mg/kg baloxavir marboxil, 8 h): 1.12 ng/mL

Cc1c(Cl)c(=O)oc2cc(OCCCC[Se]C#N)ccc12
embryonic lethality (Caenorhabditis elegans; N2 Bristol, NGM with E. coli OP50; 5 µM, 24 h): 1.69%

CC(C)C[C@H](NC(=O)[C@H](Cc1c[nH]cn1)NC(=O)[C@H](Cc1c[nH]cn1)NC(=O)[C@H](Cc1ccc(O)cc1)NC(=O)[C@@H](N)CS)C(=O)N[C@H](C(=O)N[C@@H](CC(C)C)C(=O)N[C@H](C(=O)N[C@H](C(=O)NCC(=O)NCC(=O)N[C@@H](CO)C(=O)O)C(C)C)[C@@H](C)O)C(C)C
body weight (Epstein-Barr virus; B-NDG humanized mouse, EBV-infected; 20 mg/kg, day 0): 21.1 g and 21.7 g

COc1ccc(-n2nc(C(C)=O)s/c2=N\N=C(/C)c2ccc(NC(C)=O)cc2)cc1
viability (WI-38; 0.156 µM, 24 (unit not given)): 22.9%

CCC1(c2ccccc2)C(=O)NC(=O)NC1=O
relative enzyme activity (CYP2B6 human; inducer; hepatocytes lot LTG; 750 µM; reference: DMSO): 11.9

O=c1ccc2ccccc2o1
chance response (NHEK; oxygen consumption rate, Seahorse; concentration not given, 24 h): 52.9%

Cc1ncc(OC[C@@]2(c3cccc(F)c3)C[C@H]2C(=O)Nc2ccc(F)cn2)c(C)n1
Papp (MDCK; permeability basolateral to apical; 1 µM, 90 min, pH 7.4 apical to 7.4 basolateral): 32 ×10⁻⁶ cm/s and 37.6 ×10⁻⁶ cm/s

COc1cc2c(Oc3ccc4[nH]c(C)cc4c3F)ccnc2cc1OCC1(N)CC1
weight loss incidence (paediatric refractory sarcoma patients; 10 mg): 25%

COc1cc(CNC(=O)CSc2nc(C)cc(-c3ccccc3)c2C#N)cc(OC)c1OC
viability (MDA-MB-231; MTT; 100 µM, 72 h): 78 ± 10%

CCN(CC)C(=O)[C@@H]1C=C2c3cccc4[nH]cc(c34)C[C@H]2N(C)C1
List of Complaints score (item: tendency to cry; healthy volunteers; dose not given, 12 to 24 h; reference: placebo, direction not given): 0

CCc1ccc(CC/C=C/c2ccc3c(c2)C(=O)CC3)cc1
HDW (Sprague-Dawley rat, male; oral, 30 mg/kg/day, 14 days): 23.1 g/L

COCCN(CCOC)N=O
revertant colonies per plate (Salmonella typhimurium; mutagenicity, Ames plate incorporation; TA100; 2500 µg/plate, 3 d, without S9, methanol): 146 ± 16

CO[C@H]1C[C@@H]2CC[C@@H](C)[C@@](O)(O2)C(=O)C(=O)N2CCCC[C@H]2C(=O)O[C@H]([C@H](C)C[C@@H]2CC[C@@H](OC(=O)NCCOCCOCCOCCOCCOCCOCCOCCOCCC(=O)N3CCc4cc(Cn5nc(-c6ccc7oc(N)nc7c6)c6c(N)ncnc65)ccc4C3)[C@H](OC)C2)C[C@@H](O)[C@H](C)/C=C(\C)[C@@H](O)[C@@H](OC)C(=O)[C@H](C)C[C@H](C)/C=C/C=C/C=C/1C
AEs leading to discontinuation (dose-escalation trial; patients with advanced solid tumours; intravenous, all doses weekly, any grade): 12.3%

C[C@]1(CO)Cc2ncn(-c3ccc(C#N)c(Cl)c3)c2C(=O)O1
linearity index (human, plasma; 20 mg multiple doses; reference: dose-proportional exposure): 106%

CN1CC[C@@H](c2c(O)cc(O)c3c(=O)cc(-c4ccc(C(F)(F)F)cc4Cl)oc23)[C@@H]1CO
patients with adverse event (item: Sepsis; relapsed AML; oral, 200 mg, grade 3-4, intermittent dosing): 20%

Cc1cc(C(=O)NC(C)(C)COc2cccc3c2C(N)=NS(=O)(=O)N3)cc(C)n1
revertant ratio (Salmonella typhimurium; Ames test, confirmatory; TA1535; 333 µg/plate, with: rat liver S9; reference: solvent control): 0.7

Cc1cc(C)c(CNC(=O)c2cc(Cl)c3c(c2C)O[C@@](C)([C@H]2CC[C@H](N(C)C)CC2)O3)c(=O)[nH]1
Coagulopathy incidence (human, relapsed/refractory NHL; all TEAEs, grade 5): 0%

CNC(=O)c1c(N(C)N=O)ncn1C
revertant colonies per plate (Escherichia coli; mutagenicity, Ames plate incorporation; WP2 uvrA pKM101; 50 µg/plate, without S9, methanol): 121 ± 11
